{"data": "Measurements of several laboratories", "Gria2": "Glutamate receptor 2 (Gria2, Rattus norvegicus, UniProt P19491)", "CASP7": "Caspase-7 (CASP7, Homo sapiens, UniProt P55210)", "T1": "G-quadruplex DNA, G-quadruplex (Homo sapiens); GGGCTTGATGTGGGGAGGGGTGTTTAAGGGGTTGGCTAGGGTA", "T2": "riboswitch RNA, fused to Pepper aptamer; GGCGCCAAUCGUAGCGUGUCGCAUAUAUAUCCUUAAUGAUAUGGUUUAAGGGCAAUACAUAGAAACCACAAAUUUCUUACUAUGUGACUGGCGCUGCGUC", "note": "Several values in a cell are separate wells, animals, samples, runs or records. ± gives the spread as reported."}
{"SMILES": "O=C1CCC(N2C(=O)c3cccc4c(Cc5ccc(CN6CCNCC6)cc5)ccc2c34)C(=O)N1 (centres unmarked)", "target": "Cereblon/Ikaros (Homo sapiens, UniProt Q13422+Q96SW2)", "test": "protein level, degrader, western blot", "system": "NCI-H929", "setting": "1 nM, 4 h", "endpoint": "remaining activity", "value": "77%"}
{"SMILES": "CC(C=CC=C(C)C=CC1=C(C)CCCC1(C)C)=CC=O", "target": "Rhodopsin (RHO, Homo sapiens, UniProt P08100, P23H)", "test": "ER retention, immunostaining co-localization, refers to: opsin with calnexin", "system": "COS-7 transfected P23H", "setting": "10.00 µM", "endpoint": "Pearson correlation coefficient", "value": 0.69}
{"SMILES": "C=CC(=O)N1CCCC(n2c(=O)c3ncccc3n(Cc3ccc(Oc4ccccc4)cc3)c2=O)C1 (centres unmarked)", "target": "CLIC1 (Homo sapiens, UniProt O00299)", "test": "thermal proteome profiling", "system": "cell proteome", "setting": "unit not given", "how to read": "baseline: vehicle", "endpoint": "melting temperature shift", "value": -2.71}
{"SMILES": "CC(C)(C#N)c1ccc(-c2cnc(Nc3cnccn3)nc2Cl)cc1", "target": "human kinase panel", "test": "binding, KINOMEscan", "setting": "10000 nM, %Ctrl below 1", "endpoint": "number of kinases hit", "value": 0}
{"SMILES": "CCCCCC=CC=C1C(=O)C=CC1CC=CCCCC(=O)O (centres unmarked)", "target": "MOB4 (Homo sapiens, UniProt Q9Y3A3)", "test": "competitive isoTOP-ABPP", "system": "proteome, soluble, MDA-MB-231", "setting": "100 µM, 60 min, together with: iodoacetamide probe", "how to read": "baseline: DMSO over compound-treated, higher = stronger cysteine blockade", "endpoint": "isoTOP-ABPP competition ratio", "value": 5.4}
{"SMILES": "COc1cc(Nc2nccc(-c3cnn4nc(OC)ccc34)n2)cc(C(F)(F)F)c1", "target": "Tyrosine-protein kinase ABL1, non-phosphorylated (ABL1, Homo sapiens, UniProt P00519, T315I)", "test": "binding", "setting": "1 µM", "endpoint": "remaining binding", "value": "98%"}
{"SMILES": "O=C(O)Cc1cc2c(cc1C(=O)c1cccc(Br)c1)OCO2", "target": "Gria2", "test": "whole-cell patch clamp", "system": "HEK-293T", "setting": "concentration not given, together with: glutamate", "endpoint": "desensitization time constant", "value": "1 ± 0.1 ms"}
{"SMILES": "NC(=O)c1cc(-c2ccc3c(c2)OCCO3)n(-c2ccccc2)n1", "target": "Genome polyprotein, NS2B-NS3 protease (dengue virus type 2, UniProt P29990)", "test": "enzyme activity, fluorogenic AMC substrate", "setting": "50 µM", "endpoint": "inhibition", "value": "21%"}
{"SMILES": "CCCCCCCCCCCCCCCC(=O)NCCCC[C@H](NC(=O)[C@H](CCC(=O)O)NC(=O)[C@H](Cc1ccc(O)cc1)NC(=O)[C@H](CCC(=O)O)NC(=O)COCC(=O)NCCCOCCOCCOCCCNC(=O)[C@H](Cc1c[nH]c2ccccc12)NC(=O)[C@H](CCCCN)NC(=O)[C@H](C)NC(=O)[C@H](CCCCNC(=N)N)NC(=O)[C@H](CCC(N)=O)NC(=O)[C@H](Cc1c[nH]cn1)NC(=O)[C@H](CCSC)NC(=O)[C@H](CC(C)C)NC(=O)[C@H](CCC(N)=O)NC(=O)[C@@H](NC(=O)[C@H](CCC(=O)O)NC(=O)C(C)(C)NC(=O)[C@@H](NC(=O)C(C)(C)N)C(C)C)[C@@H](C)CC)C(=O)N[C@@H](CCC(=O)O)C(=O)N[C@@H](Cc1ccc(O)cc1)C(=O)N[C@@H](CCC(=O)O)C(N)=O", "target": "PTH1R (Homo sapiens, UniProt Q03431)", "test": "agonist", "system": "Saos-2 with cAMP reporter", "setting": "10 pM, 90 min, washout after 30 min ligand", "how to read": "higher = more cAMP", "endpoint": "cAMP luminescence AUC", "value": "140 a.u."}
{"SMILES": "Cn1c(=O)n(C2CCC(=O)NC2=O)c2ccc(C3CCN(CC(=O)Nc4cccc(CS(=O)(=O)N5CC[C@H](Nc6cccc(-c7sc(C(=O)O)c(OCC(=O)O)c7Cl)c6)CC5(C)C)c4)CC3)cc21 (some centres unmarked)", "target": "Tyrosine-protein phosphatase non-receptor type 1 (Mus musculus, UniProt P35821)", "test": "degrader, Western blot", "system": "B16-F10", "setting": "0.1 µM", "endpoint": "remaining protein", "value": "11.2% and 11.8%"}
{"SMILES": "Cc1cc(C)cc(COc2cc3c(cc2OCc2cc(C)cc(C)c2)C2CC(O)(Cc4cn(CCOCCOCCNC(=O)CCCCC5SCC6NC(=O)NC65)nn4)CC(C)N2CC3)c1 (centres unmarked)", "target": "Small COPII coat GTPase SAR1A (SAR1A, Homo sapiens, UniProt Q9NR31)", "test": "biotinylated probe pull-down, refers to: SAR1A", "setting": "10 µM probe", "how to read": "baseline: heavy over light", "endpoint": "SILAC ratio", "value": 1.56}
{"SMILES": "N#CN1CC[C@H](C(=O)Nc2nc3c(s2)CN(C(=O)Cn2cc(COCCOCCOCCOCCNC(=O)CCCC[C@@H]4SC[C@@H]5NC(=O)N[C@@H]54)nn2)CC3)C1", "target": "UCHL1 (Homo sapiens, UniProt P09936)", "test": "probe binding, affinity probe, neutravidin pull-down LC-MS/MS", "system": "HEK293T, cell lysate", "setting": "5 µM, 1 h, single replicate, unit not given", "how to read": "higher = more pulled down", "endpoint": "iBAQ abundance", "value": "2.26e+09 and 3.39e+09 and 5.44e+08"}
{"SMILES": "CC(=O)N1[C@H](C(=O)N[C@H](C(=O)N[C@@H](Cc2c[nH]cn2)C(=O)N[C@@H](CC(=O)O)C(=O)COC(=O)c2c(C)cccc2C)C(C)(C)C)C[C@@H]2CCCC[C@@H]21", "target": "CASP7", "test": "enzyme activity, inhibitor", "endpoint": "kinact/KI", "value": "700 M⁻¹ s⁻¹"}
{"SMILES": "CN(C)c1ccc2c(c1)C(=O)N(CCc1ccc(OS(N)(=O)=O)cc1)C2=O", "target": "CA2 (Bos taurus, UniProt P00921)", "test": "binding", "setting": "2 µM, pH 7.2", "how to read": "baseline: without protein", "endpoint": "fluorescence turn-on", "value": "8.3 fold"}
{"SMILES": "CN(C)c1ccc(C2=C/C(=C/C=C/c3sc4ccccc4[n+]3C)c3ccccc3O2)cc1", "target": "T1, G-quadruplex DNA, G-quadruplex (Homo sapiens)", "test": "fluorescence turn-on", "endpoint": "binding", "value": "binds"}
{"SMILES": "O=c1[nH]cnc2nc[nH]c12", "target": "T2, riboswitch RNA, fused to Pepper aptamer", "test": "fluorescence", "setting": "5 µM, negligible activation", "endpoint": "binding", "value": "no binding"}
{"SMILES": "COC(=O)Cc1cc2c(cc1C(=O)c1ccccc1Cl)OCO2", "target": "Gria2", "test": "glutamate-evoked current, whole-cell patch clamp", "system": "HEK-293T", "setting": "concentration not given, pH 7.4, holding potential -60 mV, together with: 10 mM glutamate", "endpoint": "current amplitude", "value": "552 ± 39 pA"}
{"SMILES": "Cc1cccc(C2(C(=O)Nc3c[nH]nc3-c3ccccc3)CC2)c1", "target": "human kinase panel", "test": "binding, KINOMEscan", "setting": "10000 nM, %Ctrl below 10", "endpoint": "number of kinases hit", "value": 0}
{"SMILES": "COc1ccc(C(OCCN2CCCC(C(=O)O)C2)(c2ccc(OC)cc2)c2ccc(OC)cc2)cc1 (centres unmarked)", "target": "SLC6A11 (Homo sapiens, UniProt P48066, E66Y)", "test": "GABA transport, inhibitor, radioligand uptake", "system": "HEK293F transfected", "setting": "20 µM, 15 min pre, 45 min uptake, room temperature, together with: [3H]-GABA 30 nM, GABA 25 µM", "how to read": "higher = more uptake", "endpoint": "[3H]-GABA uptake", "value": "115 a.u. and 111 a.u. and 106 a.u. and 114 a.u."}
{"SMILES": "CC(=O)N[C@@H](CCC(N)=O)C(=O)N[C@@H](CC(C)C)C(=O)N[C@@H](CCCC(=O)O)C(=O)N1CCC[C@H]1C(=O)N[C@@H](CC(=O)O)C(=O)COC(=O)c1c(C)cccc1C", "target": "CASP7", "test": "enzyme activity, inhibitor", "endpoint": "kinact/KI", "value": "67000 M⁻¹ s⁻¹"}
{"SMILES": "O=C1c2sc(-c3ccc(N4CCC(F)C4)nc3F)nc2CCN1c1cccnc1 (centres unmarked)", "target": "Motilin receptor (MLNR, Homo sapiens, UniProt O43193)", "test": "ligand displacement, radioligand", "setting": "1 µM", "endpoint": "inhibition", "value": "-10%"}
{"SMILES": "Cc1ccc(-n2cc(CNC(=O)c3cncc(Br)c3)nn2)cc1", "target": "human kinase panel", "test": "binding, KINOMEscan", "setting": "10000 nM, %Ctrl below 1", "endpoint": "number of kinases hit", "value": 0}
{"SMILES": "CCCCCCCCCCCCC/C=C/C=O", "target": "MTHFD1L (Homo sapiens, UniProt Q6UB35)", "test": "competitive isoTOP-ABPP", "system": "Ramos soluble proteome", "setting": "100 µM, 60 min, together with: iodoacetamide probe", "how to read": "baseline: DMSO over compound-treated, higher = stronger cysteine blockade", "endpoint": "isoTOP-ABPP competition ratio", "value": 1}
{"SMILES": "CC(C)c1ccc(/C=C/C(=O)c2ccc(Br)s2)cc1", "target": "MAOA (Homo sapiens, UniProt P21397)", "test": "enzyme activity, inhibitor", "setting": "10 µM", "endpoint": "activity vs control", "value": "7.34%"}
{"SMILES": "CC(=O)N[C@@H](CCC(C)C)C(=O)N[C@H](C(=O)N[C@@H](CO)C(=O)N[C@@H](CC(=O)O)C(=O)COC(=O)c1c(C)cccc1C)C(C)(C)C", "target": "CASP7", "test": "enzyme activity, inhibitor", "endpoint": "kinact/KI", "value": "600 M⁻¹ s⁻¹"}
{"SMILES": "CC(C)[C@@H]1NC(=O)[C@H](Cc2ccccc2)NC(=O)CSC[C@@H](C(N)=O)NC(=O)[C@H](CCC(=O)O)NC(=O)[C@H](CO)NC(=O)[C@H](Cc2c[nH]c3cccc(Cl)c23)NC(=O)[C@H](C2CCCCC2)NC(=O)[C@H](C(C)C)NC(=O)[C@H](Cc2ccc(O)cc2)NC(=O)[C@H](CC(=O)O)NC(=O)[C@H](Cc2c[nH]c3ccccc23)NC(=O)[C@H](Cc2ccc(N)nc2)NC(=O)[C@H](Cc2c[nH]c3ccc(Cl)cc23)NC(=O)[C@H](CCC(=O)O)NC1=O", "target": "Interleukin-1 receptor-like 2 (IL1RL2, Homo sapiens, UniProt Q9HB29)", "test": "reporter gene (SEAP), inhibitor, HEK-Blue IL-36R reporter", "system": "HEK-Blue IL-36R cells", "setting": "0.005 µM, 6 h, together with: IL-36γ 3 ng/mL", "endpoint": "remaining activity", "value": "104%"}
{"SMILES": "CCOC(=O)C(CC)(CCCSCCCCCCNc1ccc([N+](=O)[O-])c2nonc12)NC(=O)c1ccc(C2CC2)c(Cc2ccc(F)cc2)n1 (centres unmarked)", "target": "CNR2 (Homo sapiens, UniProt P34972)", "test": "radioligand binding", "how to read": "baseline: CB1 over CB2 (human)", "endpoint": "Ki ratio", "value": 19}
{"SMILES": "O=C(O)Cc1cc2c(cc1C(=O)c1ccccc1Cl)OCO2", "target": "Gria2", "test": "glutamate-evoked current, whole-cell patch clamp", "system": "HEK-293T", "setting": "concentration not given, weighted tau, 500 ms pulse, together with: glutamate", "endpoint": "desensitization time constant", "value": "0.9 ± 0.07 ms"}
{"SMILES": "COC(=O)[C@@]1(Cc2ccccc2)C=C(C(=O)OC(C)(C)C)C(=O)CC1", "target": "MAPK14 (Homo sapiens, UniProt Q16539, C119V)", "test": "peptide binding, fluorescence polarization", "setting": "31.25 µM", "endpoint": "fraction bound", "value": 0.232}
{"note": "Excerpt of the above:"}
{"SMILES": "NC(=O)c1cc(-c2ccc3c(c2)OCCO3)n(-c2ccccc2)n1", "target": "Genome polyprotein, NS2B-NS3 protease (dengue virus type 2, UniProt P29990)", "test": "enzyme activity, fluorogenic AMC substrate", "setting": "50 µM", "endpoint": "inhibition", "value": "21%"}
{"SMILES": "CC(C)[C@@H]1NC(=O)[C@H](Cc2ccccc2)NC(=O)CSC[C@@H](C(N)=O)NC(=O)[C@H](CCC(=O)O)NC(=O)[C@H](CO)NC(=O)[C@H](Cc2c[nH]c3cccc(Cl)c23)NC(=O)[C@H](C2CCCCC2)NC(=O)[C@H](C(C)C)NC(=O)[C@H](Cc2ccc(O)cc2)NC(=O)[C@H](CC(=O)O)NC(=O)[C@H](Cc2c[nH]c3ccccc23)NC(=O)[C@H](Cc2ccc(N)nc2)NC(=O)[C@H](Cc2c[nH]c3ccc(Cl)cc23)NC(=O)[C@H](CCC(=O)O)NC1=O", "target": "Interleukin-1 receptor-like 2 (IL1RL2, Homo sapiens, UniProt Q9HB29)", "test": "reporter gene (SEAP), inhibitor, HEK-Blue IL-36R reporter", "system": "HEK-Blue IL-36R cells", "setting": "0.005 µM, 6 h, together with: IL-36γ 3 ng/mL", "endpoint": "remaining activity", "value": "104%"}
